Experimental data pooled from the literature.
Parts stem from different laboratories: compare values within a part only. Substitutions count along the parent as printed.

Set 1 — method: RNAcompete; molecule type: RNA; matrix: in vitro; tested at: 20 nM; notes: 7-mer, probes averaged, single round; baseline: mean of 7-mers; direction: higher = stronger binding
Target: PABPC1L2, full length, GST fusion (mouse, UniProt A0ABA7IW68)
Residues (chain): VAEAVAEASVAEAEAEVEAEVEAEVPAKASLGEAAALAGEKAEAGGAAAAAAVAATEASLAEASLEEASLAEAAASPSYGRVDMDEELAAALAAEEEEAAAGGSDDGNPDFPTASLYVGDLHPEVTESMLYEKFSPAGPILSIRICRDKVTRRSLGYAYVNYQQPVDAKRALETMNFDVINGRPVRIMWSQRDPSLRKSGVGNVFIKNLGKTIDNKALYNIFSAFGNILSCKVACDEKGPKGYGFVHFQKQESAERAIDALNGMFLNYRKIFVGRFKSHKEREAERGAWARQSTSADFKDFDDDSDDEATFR
For `GAGACAU`, the 7-mer Z-score was 0.00798.
`AAUUGAC` gave a 7-mer Z-score of 0.22.
The 7-mer Z-score of `CGUCUAC` is reported as -0.313.
`UCUCUAG` gave a 7-mer Z-score of -0.347.
`GUAAUCC` gave a 7-mer Z-score of -0.157.
The 7-mer Z-score of `AGUAAUG` is reported as -0.00652.
`CUACUCG` gave a 7-mer Z-score of -0.3.
`CCCUACG` gave a 7-mer Z-score of -0.349.

Set 2 — method: protein-binding microarray; molecule type: hairpin DNA; matrix: in vitro; tested at: not given; baseline: not given; direction: higher = stronger binding
Target: Homeobox protein Hox-B13, full length (HOXB13, Homo sapiens, UniProt Q92826, residues 1-284)
Sequence of UniProt Q92826 (whole entry, looked up): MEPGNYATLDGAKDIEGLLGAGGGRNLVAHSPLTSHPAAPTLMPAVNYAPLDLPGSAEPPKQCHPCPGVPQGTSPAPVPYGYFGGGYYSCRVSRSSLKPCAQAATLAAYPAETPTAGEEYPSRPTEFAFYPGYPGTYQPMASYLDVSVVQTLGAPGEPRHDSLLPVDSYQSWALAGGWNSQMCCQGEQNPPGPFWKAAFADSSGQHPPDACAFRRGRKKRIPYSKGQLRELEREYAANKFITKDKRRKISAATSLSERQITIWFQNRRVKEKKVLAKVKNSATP
Notes: whole hairpin DNA, median over replicate spots
`GAGGCCGTTTTGCGAGGGCCTCCTGGCCCTCGCAAAACGGCCTCACACTC (5mC at 33)` gave a median fluorescence of 4300 a.u.
For `GAGGCCGTTTTATTGGAGCCTCCTGGCTCCAATAAAACGGCCTCACACTC`, the median fluorescence was 5210 a.u.
`GAGGCCGTTTTACGAGGGCCTCCTGGCCCTCGTAAAACGGCCTCACACTC` gave a median fluorescence of 5440 a.u.
With `GAGGCCGTTTTATTGTGGCCTCCTGGCCACAATAAAACGGCCTCACACTC` the median fluorescence was 4780 a.u.
With `GAGGCCGCGTTACGAGGGCCTCCTGGCCCTCGTAACGCGGCCTCACACTC` the median fluorescence was 4690 a.u.
`GAGGCCCTTTTACGAGGGCCTCCTGGCCCTCGTAAAAGGGCCTCACACTC` gave a median fluorescence of 4630 a.u.
`GAGGCCGTTTTCCGAGGGCCTCCTGGCCCTCGGAAAACGGCCTCACACTC (5mC at 12)` has a median fluorescence of 3820 a.u.
`GAGGCCGTTCTACGAGGGCCTCCTGGCCCTCGTAGAACGGCCTCACACTC (5mC at 10)` has a median fluorescence of 4030 a.u.

Set 3 — method: RNA Bind-n-Seq; molecule type: RNA; matrix: in vitro; tested at: 200 nM; notes: whole 134-nt RNA, ends assumed; with: 150 mM KCl; baseline: input library; direction: higher = stronger binding
Target: Fragile X messenger ribonucleoprotein 1, C-terminal low-complexity region (Fmr1, Mus musculus, UniProt P35922)
The log2 enrichment of `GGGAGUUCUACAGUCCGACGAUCAGUCCUGUGCUACACAUCGUAUGUACCGAAUCGGGGCCCCGGGCCCCGGGCCCCGGGAAAGUAUUAUGUUACGCCGUUCGGAUCUGCACUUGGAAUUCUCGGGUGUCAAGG` is reported as 0.0013.
`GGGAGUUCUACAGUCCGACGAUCUUCCUCAAGUCCUGUGCUACACAUCGUAUGUACCGAAUCGGUGGAGGAGGAAAGUAUUAUGUUACGCCGUUCGGAUCUGCACUUCCAGCAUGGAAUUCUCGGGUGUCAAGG` gave a log2 enrichment of -0.922.
For `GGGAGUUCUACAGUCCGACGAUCCCUGUGCUACACAUCGUAUGUACCGAAUCGGAAAAAAAGGAAAAAAAGGGGAAAAAAAGGAAAGUAUUAUGUUACGCCGUUCGGAUCUGCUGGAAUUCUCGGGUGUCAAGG`, the log2 enrichment was -0.738.
`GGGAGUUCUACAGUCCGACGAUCGUCCUGUGCUACACAUCGUAUGUACCGAAUCGGUUUUUGGUUUUUGGGGUUUUUGGGGAAAGUAUUAUGUUACGCCGUUCGGAUCUGCACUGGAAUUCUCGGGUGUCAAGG` has a log2 enrichment of -0.346.
`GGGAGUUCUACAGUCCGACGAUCAUUCUUCAUUGAGGGUGAGGAUCUCCCAAUGGGAGACUGCUCUGAAAAGAGCAUGUGCUUUUUGAAUUAGAUAACCUACUAUAAUCAUGGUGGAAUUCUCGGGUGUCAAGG` gave a log2 enrichment of -0.999.
For `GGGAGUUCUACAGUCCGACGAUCCAAGUCCUGUGCUACACAUCGUAUGUACCGAAUCGGGAGGGAAAGGGUUUUUGGGAAAGUAUUAUGUUACGCCGUUCGGAUCUGCACUUCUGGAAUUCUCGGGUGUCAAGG`, the log2 enrichment was 0.744.
The log2 enrichment of `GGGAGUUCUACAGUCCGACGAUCGCAGGAAGUAAAAACAAAUGGAAAUGCUUCGGAUAGUAAAAGGGGUGGGGGUUGCUAAGGAAAGGGUGGGAUGGGAGUGGGUAAAGAGUUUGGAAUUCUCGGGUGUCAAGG` is reported as 0.0304.
With `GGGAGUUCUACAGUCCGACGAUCUAACUUUAGAGGAGGAUCUGAUGGAUAUGGCAGUGGACGUGGAUUUGGGGAUGGCUAUAAUGGGUAUGGAGGAGGACCUGGAGGUGGUAAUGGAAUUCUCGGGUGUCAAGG` the log2 enrichment was 0.144.

Further values, each from its own experiment — parent: peptide; VAYPNSYMPKYQIST
`K10S` has a fold enrichment of 1 fold (OGT, full length, His-tagged (human); phage display, sequencing; in vitro; 1 µg OGT, single substitutions, 15-mer displayed peptide, unchanged parent 6.14; baseline: input library, higher = stronger binding).

Repeated from above (set 1):
The 7-mer Z-score of `CGUCUAC` is reported as -0.313.
`AAUUGAC` gave a 7-mer Z-score of 0.22.
The 7-mer Z-score of `AGUAAUG` is reported as -0.00652.
`UCUCUAG` gave a 7-mer Z-score of -0.347.
